Assay results of several laboratories.
Protocols differ between the studies behind these lines. ± marks the error that the study gave.
Rbpj: Rbpj 53-474 (Mus musculus, UniProt P31266)
Sequence of UniProt P31266 (whole entry, looked up): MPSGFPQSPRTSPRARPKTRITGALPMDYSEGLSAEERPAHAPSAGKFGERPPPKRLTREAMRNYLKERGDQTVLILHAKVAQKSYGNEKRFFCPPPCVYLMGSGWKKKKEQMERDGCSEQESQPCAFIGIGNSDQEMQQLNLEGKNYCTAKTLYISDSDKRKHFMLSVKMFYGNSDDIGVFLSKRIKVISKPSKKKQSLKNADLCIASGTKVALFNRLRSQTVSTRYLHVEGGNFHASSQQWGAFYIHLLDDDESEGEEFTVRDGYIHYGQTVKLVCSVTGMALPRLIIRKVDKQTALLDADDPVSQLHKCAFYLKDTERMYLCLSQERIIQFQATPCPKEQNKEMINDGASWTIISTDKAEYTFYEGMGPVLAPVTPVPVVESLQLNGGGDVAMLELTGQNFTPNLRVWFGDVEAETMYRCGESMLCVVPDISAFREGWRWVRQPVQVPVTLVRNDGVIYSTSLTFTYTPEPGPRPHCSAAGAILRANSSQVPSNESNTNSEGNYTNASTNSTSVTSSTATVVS
FGFR3 isoform IIIc: FGFR3 isoform IIIc (unknown, UniProt Q61851)
Sequence of UniProt Q61851 (whole entry, looked up): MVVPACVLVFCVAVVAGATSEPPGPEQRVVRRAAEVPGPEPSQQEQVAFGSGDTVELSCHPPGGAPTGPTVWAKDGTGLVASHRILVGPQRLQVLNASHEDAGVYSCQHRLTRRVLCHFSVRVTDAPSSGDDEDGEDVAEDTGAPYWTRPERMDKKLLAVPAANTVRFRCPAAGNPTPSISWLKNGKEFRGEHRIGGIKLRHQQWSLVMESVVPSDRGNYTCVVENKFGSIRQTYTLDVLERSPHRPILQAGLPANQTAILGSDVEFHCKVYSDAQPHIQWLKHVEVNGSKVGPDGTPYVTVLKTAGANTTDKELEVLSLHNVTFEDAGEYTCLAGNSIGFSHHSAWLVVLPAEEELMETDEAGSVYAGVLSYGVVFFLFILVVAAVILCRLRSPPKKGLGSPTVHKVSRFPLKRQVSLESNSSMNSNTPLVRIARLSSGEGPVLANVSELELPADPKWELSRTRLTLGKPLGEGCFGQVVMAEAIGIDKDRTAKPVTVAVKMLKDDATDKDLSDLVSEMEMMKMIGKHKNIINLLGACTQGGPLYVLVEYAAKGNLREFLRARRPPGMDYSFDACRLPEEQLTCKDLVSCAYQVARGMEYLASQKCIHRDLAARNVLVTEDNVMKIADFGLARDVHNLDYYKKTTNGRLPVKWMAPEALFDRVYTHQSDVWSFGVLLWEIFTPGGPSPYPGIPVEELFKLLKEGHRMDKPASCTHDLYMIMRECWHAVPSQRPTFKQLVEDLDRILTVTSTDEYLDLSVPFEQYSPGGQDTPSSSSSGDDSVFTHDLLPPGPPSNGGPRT
B1: CTNNB1 T393D (Homo sapiens, UniProt P35222); sequence looked up; chain MATQADLMELDMAMEPDRKAAVSHWQQQSYLDSGIHSGATTTAPSLSGKGNPEEEDVDTSQVLYEWEQGFSQSFTQEQVADIDGQYAMTRAQRVRAAMFPETLDEGMQIPSTQFDAAHPTNVQRLAEPSQMLKHAVVNLINYQDDAELATRAIPELTKLLNDEDQVVVNKAAVMVHQLSKKEASRHAIMRSPQMVSAIVRTMQNTNDVETARCTAGTLHNLSHHREGLLAIFKSGGIPALVKMLGSPVDSVLFYAITTLHNLLLHQEGAKMAVRLAGGLQKMVALLNKTNVKFLAITTDCLQILAYGNQESKLIILASGGPQALVNIMRTYTYEKLLWTTSRVLKVLSVCSSNKPAIVEAGGMQALGLHLTDPSQRLVQNCLWTLRNLSDAADKQEGMEGLLGTLVQLLGSDDINVVTCAAGILSNLTCNNYKNKMMVCQVGGIEALVRTVLRAGDREDITEPAICALRHLTSRHQEAEMAQNAVRLHYGLPVVVKLLHPPSHWPLIKATVGLIRNLALCPANHAPLREQGAIPRLVQLLVRAHQDTQRRTSMGGTQQQFVEGVRMEEIVEGCTGALHILARDVHNRIVIRGLNTIPLFVQLLYSPIENIQRVAAGVLCELAQDKEAAEAIEAEGATAPLTELLHSRNEGVATYAAAVLFRMSEDKPQDYKKRLSVELTSSLFRTEPMAWNETADLGLDIGAQGEPLGYRQDDPSYRSFHSGGYGQDALGMDPMMEHEMGGHHPGADYPVDGLPDLGHAQDLMDGLPPGDSNQLAWFDTDL
B2: mel-26 (Caenorhabditis elegans, UniProt Q94420); sequence looked up; chain MEPRIDGGVFIGGIGNSGNEMCSNGVPALGVSSQTEIKVEKVQHTWTVKNFSHCYQEYLENFVYLQRGDEQLTWSIKIYPKGNGENNKDFVFLCLNRVINNNVKAGKIGFKSQFKLRTAENKDIEMRIHPNPSHSDYVSYIKRDVLFPQIMPRDMIIVNVEIDVAVETITTTNEPIQFEPTNSEQQLIEDYQRLFSQELLCDFAINVNGKIIRAHKAVLAARSPVFNAMLTHQDTDEAKSSMMYINDMDYDVIYEMVYYIYCGRCNKDITDMATALLIAADKYRLEELKSHCEKYLVENINIENACSLLIIGDLYSAPKLRKRAVTYILARPKNVTGTPGWEDILKGHPNLITDIFSQIDRQSSTGATSSVSNLPGVPMDIPGITGNIVPPPSGL
B3: spoVID 501-575 (Bacillus subtilis, UniProt P37963); sequence looked up; chain ESDNSLYLTKLFTKEADEFSRMKICIVQQEDTIERLCERYEITSQQLIRMNSLALDDELKAGQILYIPQYKNSHA
B4: L3MBTL3 1-523 (Homo sapiens, UniProt Q96JM7-2); sequence looked up; chain MTESASSTSGQEFDVFSVMDWKDGVGTLPGSDLKFRVNEFGALEVITDENEMENVKKATATTTWMVPTAQEVFSEKTGMPFRLKDPVKVEGLQFCENCCQYGNVDECLSGGNYCSQNCARHIKDKDQKEERDVEEDNEEEDPKCSRKKKPKLSLKADTKEDGEERDDEMENKQDVRILRGSQRARRKRRGDSAVLKQGLPPKGKKAWCWASYLEEEKAVAVPAKLFKEHQSFPYNKNGFKVGMKLEGVDPEHQSVYCVLTVAEVCGYRIKLHFDGYSDCYDFWVNADALDIHPVGWCEKTGHKLHPPKGYKEEEFNWQTYLKTCKAQAAPKSLFENQNITVIPSGFRVGMKLEAVDKKNPSFICVATVTDMVDNRFLVHFDNWDESYDYWCEASSPHIHPVGWCKEHRRTLITPPGYPNVKHFSWDKYLEETNSLPAPARAFKVKPPHGFQKKMKLEVVDKRNPMFIRVATVADTDDHRVKVHFDGWNNCYDYWIDADSPDIHPVGWCSKTGHPLQPPLSPLE
B5: GCN4/KAR3/VIK1 353-729/341-647 C391L/C469A/C517A/C566V/C655V/E382C/C377V/C436A/C536A/C596A/C640A/K372C (Saccharomyces cerevisiae); M4M 10-Å cross-link; chain 1 SVKELEDKVEELLSKNYHLENEVARLKKLVKDTELGMKELNEILIKEETVRRTLHNELQCLRGNIRVYLRIRPALKNLENSDTSLINVNEFDDNSGVQSMEVTKIQNTAQVHEFKFDKIFDQQDTNVDVFKEVGQLVQSSLDGYNVAIFAYGQTGSGKTFTMLNPGDGIIPSTISHIFNWINKLKTKGWDYKVNAEFIEIYNENIVDLLRSDNNNKEDTSIGLKHEIRHDQETKTTTITNVTSVKLESEEMVEIILKKANKLRSTASTASNEHSSRSHSIFIIHLSGSNAKTGAHSYGTLNLVDLAGSERINVSQVVGDRLRETQNINKSLSVLGDVIHALGQPDSTKRHIPFRNSKLTYLLQYSLTGDSKTLMFVNISPSSSHINETLNSLRFASKVNSTRLVSRK; chain 2 SVKELEDKVEELLSKNYHLENEVARLKKLVSKQEKFYNDTYNTVEKELLRSRRLENSIIEQCGTMRVYAYVMEQNLPENLLFDYENGVITQGLSEHVYKFNRVIPHLKVSEDKFFTQEYSVYHDMALNQKKNFNLISLSTTPHGSLRESLIKFLAEKDTIYQKQYVITLQFVFLSDDEFSQDMLLDYSHNDKDSIKLKFEKHSISLDSKLVIIENGLEDLPLNFSADEHPNLPHSGMGIIKVQFFPRDSKSDGNNDPVPVDFYFIELNNLKSIEQFDKSIFKKESAETPIALVLKKLISDTKSFFLLNLNDSKNVNKLLTISEEVQTQLAKRKKKLT
B6: FGF6 (Homo sapiens, UniProt P10767); chain SPAGTRANNTLLDSRGWGTLLSRSRAGLAGEIAGVNWESGYLVGIKRQRRLYCNVGIGFHLQVLPDGRISGTHEENPYSLLEISTVERGVVSLFGVRSALFVAMNSKGRLYATPSFQEECKFRETLLPNNYNAYESDLYQGTYIALSKYGRVKRGSKVSPIMTVTHFLPRI
B7: EPB41 210-507 (Homo sapiens, UniProt P11171); sequence looked up; chain MHCKVSLLDDTVYECVVEKHAKGQDLLKRVCEHLNLLEEDYFGLAIWDNATSKTWLDSAKEIKKQVRGVPWNFTFNVKFYPPDPAQLTEDITRYYLCLQLRQDIVAGRLPCSFATLALLGSYTIQSELGDYDPELHGVDYVSDFKLAPNQTKELEEKVMELHKSYRSMTPAQADLEFLENAKKLSMYGVDLHKAKDLEGVDIILGVCSSGLLVYKDKLRINRFPWPKVLKISYKRSSFFIKIRPGEQEQYESTIGFKLPSYRAAKKLWKVCVEHHTFFRLTSTDTIPKSKFLALGSKF
B8: LILRB4/rat CD4 d3+4 extracellular domain 24-238 (Mus musculus); sequence looked up; chain GHLPKPIIWAEPGSVIAAYTSVITWCQGSWEAQYYHLYKEKSVNPWDTQVPLETRNKAKFNIPSMTTSYAGIYKCYYESAAGFSEHSDAMELVMTGAYENPSLSVYPSSNVTSGVSISFSCSSSIVFGRFILIQEGKHGLSWTLDSQHQANQPSYATFVLDAVTPNHNGTFRCYGYFRNEPQVWSKPSNSLDLMISETKDQSSTPTEDGLETYQK
B9: VCL 879-1066 (Homo sapiens, UniProt P18206-2); sequence looked up; chain EEKDEEFPEQKAGEVINQPMMMAARQLHDEARKWSSKGNDIIAAAKRMALLMAEMSRLVRGGSGTKRALIQCAKDIAKASDEVTRLAKEVAKQCTDKRIRTNLLQVCERIPTISTQLKILSTVKATMLGRTNISDEESEQATEMLVHNAQNLMQSVKETVREAEAASIKIRTDAGFTLRWVRKTPWYQ
B10: TIMP3 24-144 (Homo sapiens, UniProt P35625); sequence looked up; chain CTCSPSHPQDAFCNSDIVIRAKVVGKKLVKEGPFGTLVYTIKQMKMYRGFTKMPHVQYIHTEASESLCGLKLEVNKYQYLLTGRVYDGKMYTGLCNFVERWDQLTLSQRKGLNYRYHLGCN
Sequence of UniProt Q8IY67 (whole entry, unmodified, looked up): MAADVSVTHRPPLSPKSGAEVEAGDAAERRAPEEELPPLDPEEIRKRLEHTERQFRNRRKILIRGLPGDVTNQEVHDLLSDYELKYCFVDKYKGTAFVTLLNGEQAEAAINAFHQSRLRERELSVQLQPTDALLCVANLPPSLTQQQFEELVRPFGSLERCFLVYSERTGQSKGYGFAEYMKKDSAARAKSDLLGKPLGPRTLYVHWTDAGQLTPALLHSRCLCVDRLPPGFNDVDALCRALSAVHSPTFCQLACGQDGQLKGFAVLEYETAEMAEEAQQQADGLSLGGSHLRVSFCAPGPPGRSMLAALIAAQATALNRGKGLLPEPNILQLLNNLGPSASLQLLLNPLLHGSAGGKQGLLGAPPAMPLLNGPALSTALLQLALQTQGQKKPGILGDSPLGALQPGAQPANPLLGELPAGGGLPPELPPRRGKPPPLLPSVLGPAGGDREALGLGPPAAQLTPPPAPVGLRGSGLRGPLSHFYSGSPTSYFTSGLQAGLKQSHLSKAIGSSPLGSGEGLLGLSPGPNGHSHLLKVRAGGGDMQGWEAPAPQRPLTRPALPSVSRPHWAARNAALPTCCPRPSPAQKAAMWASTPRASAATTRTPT
Sequence of UniProt Q9D3P8 (whole entry, looked up): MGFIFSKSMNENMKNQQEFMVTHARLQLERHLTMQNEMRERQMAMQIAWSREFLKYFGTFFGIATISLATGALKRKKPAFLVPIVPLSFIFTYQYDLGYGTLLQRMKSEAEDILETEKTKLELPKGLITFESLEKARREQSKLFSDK
Sequence of UniProt P35191 (whole entry, looked up): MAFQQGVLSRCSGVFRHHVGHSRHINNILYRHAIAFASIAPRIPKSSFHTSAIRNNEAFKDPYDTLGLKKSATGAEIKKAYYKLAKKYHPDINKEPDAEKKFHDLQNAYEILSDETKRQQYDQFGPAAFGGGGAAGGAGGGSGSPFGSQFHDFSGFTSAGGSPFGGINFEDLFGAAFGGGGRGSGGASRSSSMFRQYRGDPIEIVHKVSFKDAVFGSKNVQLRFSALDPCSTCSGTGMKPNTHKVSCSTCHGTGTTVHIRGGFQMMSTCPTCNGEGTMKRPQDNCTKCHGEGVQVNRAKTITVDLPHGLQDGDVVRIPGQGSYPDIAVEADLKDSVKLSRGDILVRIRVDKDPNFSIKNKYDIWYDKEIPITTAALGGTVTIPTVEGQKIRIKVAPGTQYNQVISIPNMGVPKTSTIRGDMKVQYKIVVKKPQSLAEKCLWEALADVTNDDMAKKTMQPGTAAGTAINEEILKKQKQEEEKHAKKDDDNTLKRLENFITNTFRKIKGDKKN
Sequence of UniProt P20918 (whole entry, looked up): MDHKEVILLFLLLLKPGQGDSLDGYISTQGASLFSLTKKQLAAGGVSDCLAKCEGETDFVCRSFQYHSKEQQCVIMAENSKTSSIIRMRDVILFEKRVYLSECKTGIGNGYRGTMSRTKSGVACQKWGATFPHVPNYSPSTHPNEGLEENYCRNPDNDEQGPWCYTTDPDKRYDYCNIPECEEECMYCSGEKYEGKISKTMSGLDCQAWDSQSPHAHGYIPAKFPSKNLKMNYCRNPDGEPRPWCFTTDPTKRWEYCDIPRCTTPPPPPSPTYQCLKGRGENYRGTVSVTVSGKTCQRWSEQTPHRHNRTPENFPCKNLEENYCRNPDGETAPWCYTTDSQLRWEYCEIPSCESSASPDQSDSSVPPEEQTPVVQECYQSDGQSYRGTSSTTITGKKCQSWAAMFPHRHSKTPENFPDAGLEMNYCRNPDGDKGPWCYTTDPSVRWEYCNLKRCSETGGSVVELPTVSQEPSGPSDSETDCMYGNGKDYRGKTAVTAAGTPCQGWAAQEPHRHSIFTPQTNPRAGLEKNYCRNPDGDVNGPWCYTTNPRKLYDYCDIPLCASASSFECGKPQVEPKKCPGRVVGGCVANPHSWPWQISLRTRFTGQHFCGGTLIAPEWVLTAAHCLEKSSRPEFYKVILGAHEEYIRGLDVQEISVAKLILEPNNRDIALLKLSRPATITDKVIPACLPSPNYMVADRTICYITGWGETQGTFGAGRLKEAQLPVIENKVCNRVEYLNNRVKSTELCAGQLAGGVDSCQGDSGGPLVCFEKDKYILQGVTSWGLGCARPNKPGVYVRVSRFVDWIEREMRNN
Sequence of UniProt P46873 (whole entry, looked up): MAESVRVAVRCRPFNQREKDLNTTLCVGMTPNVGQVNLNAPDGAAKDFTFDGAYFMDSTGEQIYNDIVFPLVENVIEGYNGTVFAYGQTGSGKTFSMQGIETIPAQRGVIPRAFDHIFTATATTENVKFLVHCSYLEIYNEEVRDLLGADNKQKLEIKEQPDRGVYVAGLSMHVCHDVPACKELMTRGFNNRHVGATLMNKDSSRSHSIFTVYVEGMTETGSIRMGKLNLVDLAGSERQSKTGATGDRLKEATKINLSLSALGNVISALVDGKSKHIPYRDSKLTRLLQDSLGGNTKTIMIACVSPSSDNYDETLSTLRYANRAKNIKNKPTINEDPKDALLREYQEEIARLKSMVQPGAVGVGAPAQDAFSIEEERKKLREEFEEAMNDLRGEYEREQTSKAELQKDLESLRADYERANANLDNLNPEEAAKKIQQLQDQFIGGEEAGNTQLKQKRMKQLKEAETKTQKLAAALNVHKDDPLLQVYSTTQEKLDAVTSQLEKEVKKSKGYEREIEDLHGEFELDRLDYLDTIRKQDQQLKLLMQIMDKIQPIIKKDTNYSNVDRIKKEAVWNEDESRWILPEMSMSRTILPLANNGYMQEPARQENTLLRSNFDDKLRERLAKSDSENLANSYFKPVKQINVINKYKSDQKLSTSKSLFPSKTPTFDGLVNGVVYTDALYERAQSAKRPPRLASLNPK
Sequence of UniProt P35149 (whole entry, looked up): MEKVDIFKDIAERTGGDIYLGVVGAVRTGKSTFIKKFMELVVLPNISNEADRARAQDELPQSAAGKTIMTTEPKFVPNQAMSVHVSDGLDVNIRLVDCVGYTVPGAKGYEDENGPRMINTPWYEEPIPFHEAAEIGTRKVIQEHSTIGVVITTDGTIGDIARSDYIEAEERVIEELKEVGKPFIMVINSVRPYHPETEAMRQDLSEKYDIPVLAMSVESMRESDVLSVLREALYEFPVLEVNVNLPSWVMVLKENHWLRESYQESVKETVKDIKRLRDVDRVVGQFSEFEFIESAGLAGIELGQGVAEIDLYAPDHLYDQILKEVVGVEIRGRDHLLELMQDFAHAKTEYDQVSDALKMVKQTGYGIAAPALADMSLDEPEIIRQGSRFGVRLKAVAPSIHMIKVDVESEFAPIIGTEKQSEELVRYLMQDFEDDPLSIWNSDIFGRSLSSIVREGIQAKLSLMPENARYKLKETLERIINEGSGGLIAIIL
Sequence of UniProt P0A6A8 (whole entry, looked up): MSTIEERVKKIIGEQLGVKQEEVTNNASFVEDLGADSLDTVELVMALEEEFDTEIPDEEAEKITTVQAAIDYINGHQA

Molecule	partner	test	test system	setting	how to read	quantity	result
ADM mature (Homo sapiens)	CALCRL/RAMP2 whole, on cells (Homo sapiens)	cAMP, antagonist, CAMYEL BRET	COS-7	100 nM agonist		cAMP decay rate	0.4 min⁻¹
Ac-GRPCG-NH2 (PTX3 100-104 A100G/A104G, N-acetyl/C-terminal amide (Homo sapiens); N-acetyl/C-terminal amide)	FGF2 18 kD form (Homo sapiens)	cell proliferation, antagonist	peptide, GM7373	3-1000 µM, together with: FGF2 0.55 nM		ID50	1000 µM
B1 (CTNNB1 T393D)	Axin (Xenopus, UniProt Q9YGY0)	immunoblot	C57MG		higher = more phosphorylation	phosphorylated to total β-catenin ratio	0.45 ratio
B2 (mel-26)	mei-1 S90A, phosphorylated by MBK-2 (Caenorhabditis elegans, UniProt P34808)	far-Western		4 °C, denatured		binding	binds
SSC1 mature P486S (Saccharomyces cerevisiae)	Mdj1 mature (Saccharomyces cerevisiae, UniProt P35191)	prevention of rhodanese aggregation		preformed complex	baseline: wild-type Ssc1, higher = greater loss of activity	reduction in chaperone activity	35%
MENVKKATATATWMVPTAQ (L3MBTL3 52-70 T62A (Homo sapiens, UniProt Q96JM7-2); sequence looked up)	Rbpj	ITC	peptide	pH 6.5, 25 °C, NaCl 150 mM		ΔH	-13.7 kcal/mol
HSPA1A (Homo sapiens, UniProt P0DMV8)	MAPT (Homo sapiens, UniProt P10636-6)	co-IP	HeLa	not purified, together with: DnaJA1 over-expression	baseline: control, higher = more Hsp70 co-precipitated	relative co-precipitation	2.76 fold
F8 A2 subunit D666S (human)	F8 A1 and A3C1C2 dimer, factor VIIIa	FXa generation activity loss		1.5 nM, 23 °C	higher = faster decay	decay rate	0.49 min⁻¹
plasminogen (UniProt P20918)	Plgrkt (Mus musculus, UniProt Q9D3P8)	immunoblot	satellite cells	15 min, together with: plasminogen 5 µg/mL	baseline: total ERK, higher = more phosphorylation	p-ERK	2 fold
B3 (spoVID 501-575)	spoIVA (Bacillus subtilis, UniProt P35149)	pull-down		together with: ATP 4 mM	baseline: unpolymerized SpoIVA without ATP, higher = more bound	relative binding	7 fold
fabF fragment (Escherichia coli)	acpP C12-acylated 1-78, C12 acyl on 4'-phosphopantetheine (Escherichia coli, UniProt P0A6A8)	holo-AcpP formation, HPLC		10 µM, together with: malonyl-CoA		condensation rate	2.24 min⁻¹
H3K4me3 peptide, K4me3	Rag2 (Mus musculus, UniProt P21784)	12-RSS nicking, steady-state kinetics		together with: H3K4me3 4 µM		kcat	0.0627 s⁻¹
Itga1/Itgb1 whole, on cells (Mus musculus)	COL4A1 (Homo sapiens, UniProt P02462)	cell attachment assay	MLEC	together with: function-blocking α1β1 integrin antibody	baseline: control IgG or PBS, higher = more attachment	cell attachment	56%
E2F2 transactivation domain D410H (Homo sapiens)	RBL1 391-972 del601-779/del888-923 (Homo sapiens, UniProt P28749)	ITC			baseline: wild-type E2F2 TD, higher = tighter binding	relative affinity	3 fold
B4 (L3MBTL3 1-523)	Rbpj	ITC		pH 6.5, 25 °C, NaCl 150 mM		ΔH	-10.6 kcal/mol
B5	microtubules tubulin polymer	TIRF motility assay		20 min	higher = more stopped	stopped microtubules	80%
B6 (FGF6)	FGFR3 isoform IIIc	cell proliferation, MTT	BaF3-FGFR3c	20 nM, 48 h, together with: chondroitin sulfate A 4.9 µg/mL	baseline: FGF 1 with heparin, higher = more proliferation	cell proliferation	4%
BCR/ABL1 fusion (Homo sapiens)	Abltide-p40 fusion Abltide at C-terminus	substrate phosphorylation	K-562, lysate	competing substrates	lower = faster	time to half-maximal phosphorylation	< 2 min
B7 (EPB41 210-507)	MPP1 (Homo sapiens, UniProt Q00013)	SPR		50-400 nM, pH 7.4, 25 °C		koff	0.0047 s⁻¹
MMP2 fragment F297A (Homo sapiens)	COL1A1/COL1A2 denatured, gelatin (Homo sapiens)	DQ-gelatin fluorescence		10 nM, 25 °C	higher = faster hydrolysis	hydrolysis rate	0.213 RFU/s
B8	LAIR1/rat CD4 d3+4 extracellular domain 22-165 (Homo sapiens)	SPR		multivalent bead assay		response	250 RU
DnaA (Caulobacter crescentus)	Lon protease (Caulobacter crescentus)	steady-state kinetics		30 °C		KM	2.9 µM
Ac-DVSNKAYEDAEAKAKYEAEAAFFANLKLSD-NH2 (PRKG1 peptide residues 329-358; N-acetyl, C-terminal amide)	PRKG1 Iα (UniProt P00516)	PKG Iα kinase activity, activator	peptide		baseline: cGMP controls, higher = stronger activation	maximal activation efficacy	80%
CLSTAADMQGVVTDGMASGLDKDYLKPDD (azu residues 50-77)	TP63 DBD 127-323 (Homo sapiens)	atomic force spectroscopy	peptide	pH 7.5, NaCl 150 mM		koff	0.014 s⁻¹
B9 (VCL 879-1066)	RAVER1 39-321 (Homo sapiens, UniProt Q8IY67)	ITC		23 °C, NaCl 150 mM		ΔH	-10.5 ± 0.2 kcal/mol
dyf-1/osm-6 (Caenorhabditis elegans)	osm-3 (Caenorhabditis elegans, UniProt P46873)	single-molecule transport				velocity	1.8 µm/s
FGF8b (Homo sapiens)	FGFR3 isoform IIIc	cell proliferation, MTT	BaF3-FGFR3c	20 nM, 48 h, together with: completely desulfated heparin 4.9 µg/mL	baseline: FGF 1 with heparin, higher = more proliferation	cell proliferation	67%
B10 (TIMP3 24-144)	ADAMTS4 213-519 (Homo sapiens, UniProt O75173)	inhibitor, steady-state kinetics		1 h, 37 °C, apparent		Ki	0.00055 µM

Some of these lines once more:
Molecule	partner	test	test system	setting	how to read	quantity	result
FGF8b (Homo sapiens)	FGFR3 isoform IIIc	cell proliferation, MTT	BaF3-FGFR3c	20 nM, 48 h, together with: completely desulfated heparin 4.9 µg/mL	baseline: FGF 1 with heparin, higher = more proliferation	cell proliferation	67%
H3K4me3 peptide, K4me3	Rag2 (Mus musculus, UniProt P21784)	12-RSS nicking, steady-state kinetics		together with: H3K4me3 4 µM		kcat	0.0627 s⁻¹
B10 (TIMP3 24-144)	ADAMTS4 213-519 (Homo sapiens, UniProt O75173)	inhibitor, steady-state kinetics		1 h, 37 °C, apparent		Ki	0.00055 µM
HSPA1A (Homo sapiens, UniProt P0DMV8)	MAPT (Homo sapiens, UniProt P10636-6)	co-IP	HeLa	not purified, together with: DnaJA1 over-expression	baseline: control, higher = more Hsp70 co-precipitated	relative co-precipitation	2.76 fold
